Experimental data of several laboratories.
Parts stem from different laboratories: compare values within a part only.

Series 1
Target: Histone acetyltransferase KAT6A, winged helix 2, GST fusion (KAT6A, Homo sapiens, UniProt Q92794, residues 85-181)
Technique: protein binding microarray
Molecule type: double-stranded DNA, one strand shown
Medium: in vitro
Tested at: not given
Setting: 8-mer, flanks averaged, mean of 2 arrays, mostly near background
Reference: not given
Direction: higher = stronger binding
Target sequence (chain): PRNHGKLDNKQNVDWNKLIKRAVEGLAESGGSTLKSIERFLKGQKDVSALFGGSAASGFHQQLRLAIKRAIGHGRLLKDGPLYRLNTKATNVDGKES
Strand	E-score
ATTGTGTG	-0.0833
GTGACCCA	0.0807
AATATACG	-0.165
AGCTCTCA	0.126
ATTGCACG	0.0271
AAATCGCG	-0.00446
CCACTCGG	0.0912
CTTGGGTA	-0.0791
ACCGGAAT	-0.203
GCTGTCCA	0.119
CGAGGTGC	0.0243
ACTGGAGA	-0.138
AAGGGTGA	0.000725
CGATTACG	-0.288
AGTTCTTC	0.0548
AGGAAGGA	-0.165
GTTCCAAC	0.0341
CGTACTAG	0.04

Series 2
Target: Sal-like protein 4, full length isoform B (SALL4, Homo sapiens, UniProt Q9UJQ4-2, residues 1-616)
Technique: universal PBM
Molecule type: double-stranded DNA, one strand shown
Medium: in vitro
Tested at: not given
Setting: 8-mer, flanks averaged, mean of replicates
Direction: higher = stronger binding
Strand	E-score
CCGCTTCA	-0.186
AGGTATAC	0.0922
CTATGGAG	0.0841
CGACATGC	-0.0242
TAGTTGGA	0.0482
TACAGACA	0.224
AAATCTAG	0.0394
AGCAACCC	-0.194
AATTACTC	0.297
CGGAGGAG	-0.196
GTGGTTGA	-0.0243
ATAGATTC	0.212
ACATTCGC	-0.0709
AATCTGAG	-0.0148
CGAAATAC	0.171
AAAGAAAC	0.0823
CTCCCCAA	-0.208
CAACCGGA	-0.292

Series 3
Target: RING finger protein unkempt homolog, zinc fingers 1-6, GST-SBP tag (UNK, Homo sapiens, UniProt Q9C0B0, residues 30-357)
Technique: RNA Bind-n-Seq
Molecule type: RNA
Medium: in vitro
Tested at: not given
Setting: RNA with constant flanks, human and mouse sites, ends assumed
Reference: input RNA pool
Direction: higher = stronger binding
Shared flanks, not repeated: GGGAGUUCUACAGUCCGACGAUC … CAACAGAGGAUUGAGCAUCA
Target sequence (chain): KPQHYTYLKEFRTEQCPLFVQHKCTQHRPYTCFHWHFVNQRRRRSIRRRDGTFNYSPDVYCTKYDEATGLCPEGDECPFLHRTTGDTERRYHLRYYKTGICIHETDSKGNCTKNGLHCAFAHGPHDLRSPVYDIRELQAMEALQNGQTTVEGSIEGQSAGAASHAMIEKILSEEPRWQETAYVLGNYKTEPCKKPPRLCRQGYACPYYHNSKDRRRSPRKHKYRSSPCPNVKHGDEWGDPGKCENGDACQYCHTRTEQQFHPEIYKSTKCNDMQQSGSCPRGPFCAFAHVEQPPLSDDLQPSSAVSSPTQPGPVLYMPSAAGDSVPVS
Strand	bound/input enrichment [ratio]
AUACCUCCAACAGGGUCACUGUCAAGAACCUCGAUUAUAGCAGGAAGCUGAAAAACGUGCUAGUGACCAUUUACUGGCUGGGGAAAGCUGCAAACAGCUGUGCAUCCUACGGUGGAACCA	0.159
UGGCCAUAUUUCCCUAGACGUUAUCCUCUGCCUUGUCAGUUUGUUUGUCUGUGGCUUUUUUUUAGGGGAGGGGGAAGAGAUGGGCAGCUGUAACAAGUAGCCCAGAUAGAUCUAUGGGUG	1.88
GUGGAGAUAAGCCCCAUAAAUGUAACUAUUGUGAUAUGGUUUUUGCACAUAAACCAGUUUUGAGGAAACACCUUAAACAGCUGCAUGGCAAAAACAGCUUUGAUAAUGCCAAUGAGAGAA	0.194
AGACCUUUGGGUACAACCAAAGCUGCAGGAUACAAAGUCAGCCCAGGGAGACCUCCAGGUAGCAUUAAAGCUCUGUCCCGCCUUGCAGAUCUUGGCUAUGGCUGUGGCACUGCUGCCUUU	0.154
UUUGAUACCGUUAAGAGUGUAUUAGACAAAGAUCGGAAAGAAGAUGACACAAAUGAAUUUGUCAGUGCUGUGUGUUGGCGGGCACUAUCAGACGGGGAGUCCAAUGUGCUGAUUGCUGCU	0.287
AACAAAUACUGGCCCCUCUUUGUUCUAUUUUUUUACAUCCUUUCACCUAUUCCAUACUGCAUAGCAAGAAGAUUAGUGGAUGAUACAGAUGCUAUGAGUAACGCUUGUAAGGAACUUGCC	0.426
AUAAGGACAUGGACAUCAUCACCAAGUUCCUGAAGUUUCUUCUUGGUGUUUGGGCUAAAGAACUGAAUGCCAGAGAGGACUACGUGAAACGCAGUGUGCAGGGCAAACUGAACAGUGCUA	0.125
UUUGAUGAGUUCAGAACAGUGCUGUAACUGUUUUUCCUACUUCUUCAAUGGAAGGAUUGUCCUUAGAUCUUCCCACCAUCACAAAUGAAUUUGAAGAUGAAAAGAAACUCAGUUGCUCAU	0.0547

Series 4
Target: Fragile X messenger ribonucleoprotein 1, C-terminal low-complexity region (Fmr1, Mus musculus, UniProt P35922)
Technique: RNA Bind-n-Seq
Molecule type: RNA
Medium: in vitro
Tested at: 200 nM
Setting: whole 134-nt RNA, ends assumed
Added: 150 mM LiCl
Reference: input library
Direction: higher = stronger binding
Library: 7-deaza-guanosine replaces G
Shared flanks, not repeated: GGGAGUUCUACAGUCCGACGAUC … UGGAAUUCUCGGGUGUCAAGG
Strand	log2 enrichment
AAGUCCUGUGCUACACAUCGUAUGUACCGAAUCGGGGUUUGGGGUGGGGAAAGGGGAAAGUAUUAUGUUACGCCGUUCGGAUCUGCACUU	-0.504
CACAGACAACACGCACCCACACAGACAAAGAGGGAAGGGGUUGGGAUGGGGACAGGGUGCACAGCAGGGCGGGGUAGGACCCCAGCCCCU	0.206
CAAGUCCUGUGCUACACAUCGUAUGUACCGAAUCGGGUUUUGGUUUUGGGUUUUGGAAAGUAUUAUGUUACGCCGUUCGGAUCUGCACUU	-2.08
GUCCUGUGCUACACAUCGUAUGUACCGAAUCGGAAAAAAGGAAAAAAGGAAAAAAGGGGAAAGUAUUAUGUUACGCCGUUCGGAUCUGCA	-0.0921
CUGUGCUACACAUCGUAUGUACCGAAUCGGGGAAAGGGGAAAAAAAGGGGUUUUUUUGGGGAAAGUAUUAUGUUACGCCGUUCGGAUCUG	-0.429
CCUGUGCUACACAUCGUAUGUACCGAAUCGGGUUUUUUUGGUUUUUUUGGUUUUUUUGGGAAAGUAUUAUGUUACGCCGUUCGGAUCUGC	-1.13
UCAAGUCCUGUGCUACACAUCGUAUGUACCGAAUCGGAAAAAGGAAAGGAAAGGAAAGUAUUAUGUUACGCCGUUCGGAUCUGCACUUCC	-0.939
UCAAGUCCUGUGCUACACAUCGUAUGUACCGAAUCGGAAAGGGAAAGGAAAGGGAAAGUAUUAUGUUACGCCGUUCGGAUCUGCACUUCC	-0.4

A few entries again (series 2):
Strand	E-score
CAACCGGA	-0.292
AATTACTC	0.297
TAGTTGGA	0.0482
CCGCTTCA	-0.186
TACAGACA	0.224
ATAGATTC	0.212
AGCAACCC	-0.194
